Measurements gathered from unrelated publications.
Lines come from different studies, so protocols differ. ± gives the spread as reported.

| SMILES | target or system | assay | system | conditions | scale | measurement | result |
| --- | --- | --- | --- | --- | --- | --- | --- |
| COc1ccc(C[C@@H]2NC(=O)[C@H]([C@@H](C)O)NC(=O)[C@@H]3[C@@H]4CCN3C(=O)[C@@H]3Cc5cn(c6ccc(F)cc56)CCCCCCN(Cc5ccc(cc5)CCNC(=O)[C@]5(C)CCCN5C2=O)C(=O)CCC(=O)N[C@@H](C)C(=O)N[C@H](CNC(=O)CCCCC[N+](C)(C)C)C(=O)N[C@@H](Cc2cccc(c2)CNC(=O)CO4)C(=O)N3)cc1 | – | – | fasted healthy humans, plasma | oral, 35 mg single dose, with 1800 mg Labrasol, geometric mean | – | Cmax | 17.8 nM |
| CC[C@H](C)[C@H](NC(=O)[C@@H](N)CCCNC(=N)N)C(=O)N[C@H](C(=O)N1CCC[C@H]1C(=O)N[C@@H](C)C(N)=O)C(C)C | – | – | healthy volunteers, both sexes, plasma | intravenous infusion, 0.5 mg/kg daily, day 7, multiple ascending dose | – | Cmax | 1160 ± 592 ng/mL |
| Cc1cc(C(C#N)c2ccc(Cl)cc2)c(Cl)cc1NC(=O)c1cc(I)cc(I)c1O (stereo not shown) | – | – | parasitized Corriedale lambs, plasma | oral, 10 mg/kg | – | Cmax | 78000 ± 14500 ng/mL |
| CN[C@@](C)(C[18F])C(=O)O | SK-OV-3 tumour model | – | host not given, pancreas | 30 min, tumour-bearing | – | tracer uptake | 30 %ID/g |
| Cc1cnc(C(=O)N[C@H]2CCCCC/C=C\[C@@H]3C[C@@]3(C(=O)NS(=O)(=O)C3CC3)NC(=O)[C@@H]3C[C@@H](Oc4nc5ccccc5c5ccccc45)CN3C2=O)cn1 | – | – | healthy human volunteers, plasma | oral, dose not given, with: digoxin plus 2D regimen | – | Cmax | 1390 ng/mL |
| CC[C@@]1(O)C(=O)OCc2c1cc1n(c2=O)Cc2cc3c(CN(C)C)c(O)ccc3nc2-1 | – | – | human patients, plasma | oral, 2.5 mg daily for 5 days, day 5 cycle 1, geometric mean, alone | – | Cmax | 7.52 ng/mL |
| CCCCCOc1ccc(-c2cc(-c3ccc(C(=O)N[C@H]4C[C@@H](O)[C@@H](O)NC(=O)[C@@H]5[C@@H](O)[C@@H](C)CN5C(=O)[C@H]([C@H](O)CC(N)=O)NC(=O)[C@H]([C@H](O)[C@@H](O)c5ccc(O)c(OS(=O)(=O)O)c5)NC(=O)[C@@H]5C[C@@H](O)CN5C(=O)[C@H]([C@@H](C)O)NC4=O)cc3)no2)cc1 | – | – | young infants under 1000 g, plasma | intravenous infusion, 10 mg/kg/day, day 4, mean, 1 h infusion, repeat dosing | – | Cmax | 28100 ng/mL |
| c1ccc(CCN2CCCCC2)cc1 | L-type calcium channel benzothiazepine site, rat | binding | rat cerebral cortex | with: [3H]diltiazem 5 nM | – | Ki | > 10 µM |
| O=c1[nH]c(Cc2ccccn2)nc2c1cnn2C1CCOCC1 | – | – | healthy men, extensive metabolizers, plasma | oral, 100 mg single dose, tablet, geometric mean | – | Cmax | 1370 nM |
| O[C@H]1CCCN[C@@H]1CCCn1cnc2c(Cl)c(Cl)ccc21 | – | – | human, plasma | oral, 500 mg, single dose, healthy volunteers | – | Cmax | 514 ng/mL |
| C[C@H]1CNCCc2ccc(Cl)cc21 | – | – | Sprague-Dawley rat, male, plasma | subcutaneous, 1 mg/kg, 120 min | – | plasma concentration | 9.88 ± 0.6 ng/mL |
| COC(=O)N[C@H](C(=O)N1CCC[C@H]1C(=O)Nc1ccc([C@@H]2CC[C@@H](c3ccc(NC(=O)[C@@H]4CCCN4C(=O)[C@@H](NC(=O)OC)C(C)C)cc3)N2c2ccc(C(C)(C)C)cc2)cc1)C(C)C | – | – | healthy human volunteers, plasma | oral, dose not given, with: escitalopram plus 2D regimen | – | Cmax | 128 ng/mL |
| CNC(C)Cc1ccc2c(c1)OCO2 (racemic) | – | Drug Effects Questionnaire, measured: Like Drug | human | oral, 0.75 mg/kg, mean over session, unit not given | reference: pre-dose baseline | subjective drug effect rating | 22.4 |

Some of these lines once more:
| SMILES | target or system | assay | system | conditions | scale | measurement | result |
| --- | --- | --- | --- | --- | --- | --- | --- |
| CC[C@H](C)[C@H](NC(=O)[C@@H](N)CCCNC(=N)N)C(=O)N[C@H](C(=O)N1CCC[C@H]1C(=O)N[C@@H](C)C(N)=O)C(C)C | – | – | healthy volunteers, both sexes, plasma | intravenous infusion, 0.5 mg/kg daily, day 7, multiple ascending dose | – | Cmax | 1160 ± 592 ng/mL |
